Assay results pooled from the literature.
Parts stem from different laboratories: compare values within a part only. Positions count from the first letter of the parent shown.

Study 1
Target: CRIPT, C-terminal peptide
Method: DHFR complementation, deep sequencing
Sample: yeast
Notes: single substitutions, model-inferred values
Relative to: wild type
Direction: higher = weaker binding
Quantity: binding free energy change
Starting sequence: ERBIN, PDZ domain 1 (human); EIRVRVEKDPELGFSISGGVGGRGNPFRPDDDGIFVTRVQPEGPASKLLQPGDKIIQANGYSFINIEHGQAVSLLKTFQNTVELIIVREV; partner TKNYKQTSV
Variant = G18A; value = 1.33 kcal/mol
Variant = F35W; value = 0.276 kcal/mol
Variant = N80E; value = -0.0471 kcal/mol
Variant = N59C; value = 0.173 kcal/mol
Variant = P29N; value = 0.0937 kcal/mol
Variant = I55K; value = 1.44 kcal/mol

Study 2
Target: CCND1, cyclin fold, Cln2 fusion (human)
Method: yeast growth competition, sequencing
Sample: yeast
Notes: weak parent motif
Relative to: not given
Direction: higher = stronger binding
Quantity: normalised enrichment score
Starting sequence: MICAL3 docking peptide (human); LQLRRQLSFSEDS
Variant = R4A; value = 0.976
Variant = L3K; value = -0.188
Variant = E11D; value = 0.706
Variant = E11C; value = 0.128
Variant = F9T; value = -0.0196
Variant = D12H; value = 0.233
Variant = L3W; value = -0.121
Variant = S8W; value = -0.119

Study 3
Target: ABI1, truncated, D143A, DHFR fusion (Arabidopsis thaliana)
Method: DHFR PCA, deep sequencing
Sample: yeast
Notes: methotrexate growth selection, single substitutions
Added: (+)-ABA 200 µM
Relative to: wild-type fitted maximum
Direction: higher = stronger binding
Quantity: relative binding score
Starting sequence: PYL1, truncated, DHFR fusion (Arabidopsis thaliana); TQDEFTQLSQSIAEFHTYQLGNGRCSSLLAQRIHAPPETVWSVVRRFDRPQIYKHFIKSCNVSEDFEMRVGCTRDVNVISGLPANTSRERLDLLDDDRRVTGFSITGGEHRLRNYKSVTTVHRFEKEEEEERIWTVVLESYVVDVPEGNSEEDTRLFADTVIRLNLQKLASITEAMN; partner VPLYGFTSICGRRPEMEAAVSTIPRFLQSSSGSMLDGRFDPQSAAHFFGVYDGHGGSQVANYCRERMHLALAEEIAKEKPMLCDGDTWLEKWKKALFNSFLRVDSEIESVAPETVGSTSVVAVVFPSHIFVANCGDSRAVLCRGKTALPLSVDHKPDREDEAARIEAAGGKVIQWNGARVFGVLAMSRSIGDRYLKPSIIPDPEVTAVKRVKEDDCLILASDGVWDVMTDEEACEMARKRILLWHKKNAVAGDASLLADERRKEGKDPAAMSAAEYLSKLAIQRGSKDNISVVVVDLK
Variant = K168F; value = 65.9%
Variant = G148Q; value = 78.1%
Variant = T6V; value = 102%
Variant = V70R; value = 85.1%
Variant = Q167A; value = 100%
Variant = R32N; value = 93%
Variant = V145G; value = 8.09%
Variant = T101L; value = 105%
Variant = S9G; value = 96.7%
Variant = S171D; value = 105%

Further values, each from its own experiment
Substance = PhoQ, residues 284 288 289 292 302 303 NLAAMI; target = PhoP, residues 12 14 15 18 19 LHHVQ (Escherichia coli, UniProt P23836); test = Sort-seq, refers to: YFP reporter; system = E. coli; conditions = PhoQ-PhoP variant library, added: 10 µM Mg2+; scale = relative to: high Mg2+ state, higher = stronger signaling; quantity = fold induction; value = 1.17
